Measurements pooled from the literature.
Lines come from different studies, so protocols differ. Values after ≈ are worked out from the molar mass of the structure shown.

The Tmax of `CC/C(=C(\c1ccc(O)cc1)c1ccc(OCCNC)cc1)c1ccccc1` is reported as 2 h (female C57BL/6 mouse, plasma; oral, 1 mg/kg, single dose).
`OCc1nc2ccc(NCc3ccc(C(F)(F)F)cc3)cc2[nH]1` has a Vd/F of 19.1 L/kg (male BALB/c mouse, plasma; oral, 10 mg/kg).
`Fc1ccc(N/N=C/c2ccc(-c3cccc(/C=N/Nc4ccc(F)cc4F)c3)cc2)c(F)c1` has a haemolysis of less than 25% (haemolysis; mouse; 62.5 µg/mL, 1 h).
`Nc1ccc(/N=N/c2cccc(F)c2F)c(N)n1` has a half-life of roughly 0.5 h (metabolic stability; human, liver microsomes; 10 µM).
With `COc1ccc([C@@H](O)c2cc(-c3ncnc4cc(N5CCOCC5)ccc34)c(F)cc2Cl)nn1` the Tmax was 1.87 h (human, plasma; oral, 300 mg, multiple doses, twice daily, patients).
For `Cc1ccc2c(c1)nc(/C=C/c1cccc3cccnc13)n2-c1ccccc1`, the compound remaining was 55.1% (metabolic stability; rat, liver microsomes; 1.5 µM, 15 min).
The kinetic solubility of `CC[C@@](O)(c1ccc(C(F)(F)F)nc1)c1c2ccn(C3CC3)c(=O)c2nn1C` is reported as 40 to 80 µM (≈ 15.7 to 31.4 µg/mL) (nephelometry; aqueous buffer; 30 min, pH 6.5).
`NCc1ccc(-c2nn(Cc3ccccc3)c3ccccc23)o1` has a bioavailability of 116% (male CD-1 mouse, plasma; intraperitoneal, 30 mg/kg).
With `O=C(c1ccc(F)cc1)C1CCN(CCn2c(=O)[nH]c3ccccc3c2=O)CC1` the compound remaining was 21.2% (metabolic stability; monkey, liver microsomes; 1 h).
The kinetic solubility of `CCn1cc(C2CC2)c2c(Cc3ccc(C(F)(F)F)c(C#N)c3)n(C)nc2c1=O` is reported as 15 to 30 µM (≈ 6.01 to 12 µg/mL) (nephelometry; aqueous buffer; 30 min, pH 6.5).
For `NC(=S)NN=Cc1ncccc1N`, the bioavailability was 59% (human, plasma; oral).
The bioavailability of `COc1ccc(F)cc1C(=O)NCc1ccc(-c2nn([C@@H](C)C(F)(F)F)c(N)c2C(N)=O)cc1` is reported as 86% (male human, plasma; oral, 200 mg, tablet).
`C(=N\Nc1ccccc1)/c1ccc(-c2ccc(/C=N/Nc3ccccc3)cc2)cc1` gave a haemolysis of less than 20% (haemolysis; mouse; 62.5 µg/mL, 1 h).
`CCN1CCN(Cc2ccc(NC(=O)c3ccc(C)c(NC(=O)c4cncc(-c5cccs5)c4)c3)cc2C(F)(F)F)CC1` gave a Tmax of 1 h (mouse, plasma; intraperitoneal, 15 mg/kg, single dose).
`COc1ccc2c(=O)n(C)c(-c3ccccc3)nc2c1` has a concentration of 133 ng/g (male Sprague-Dawley rat, spleen; oral, 30 mg/kg, 30 min, single dose).
For `O=C1CC[C@H](N2Cc3cc(N4CCN(CC5CCN(c6ccc([C@@H]7c8ccc(O)cc8CC[C@@H]7c7ccccc7)cc6)CC5)CC4)ccc3C2=O)C(=O)N1`, the Vd was 2.95 L/kg (Sprague-Dawley rat, plasma; intravenous, 5 mg/kg).
The Tmax of `O=C(COc1ccc(Cl)cc1)NC12CC(c3nnc([C@H]4C[C@@H](OC(F)(F)F)C4)o3)(C1)C2` is reported as 12 h (human, plasma; oral, 200 mg, single dose, fasted, healthy volunteers).
The Tmax of `Cc1nc(-c2cnc(NC(C)C)n(C)c2=O)ccc1Oc1ccnc(-c2cnn(C)c2)c1` is reported as 6 h (female mouse, plasma; oral, 15 mg/kg, single dose).
With `CCOC(=O)[C@@]12C[C@@H]1[C@@H](n1ccc3c(NC)nc(C#Cc4ccc(Cl)s4)nc31)[C@H](O)[C@@H]2O` the concentration was 8.88 ng/mL (male Sprague-Dawley rat, plasma; oral, 1 mg/kg, 30 min).
With `Cc1ncsc1-c1ccc([C@H](C)NC(=O)[C@@H]2C[C@@H](O)CN2C(=O)[C@@H](NC(=O)CCCCCCCCCCC(=O)NCCCn2cc(-c3ccc4c(c3)CCN4C(=O)Cc3cccc(OC(F)(F)F)c3)c3c(N)ncnc32)C(C)(C)C)cc1` the half-life was 0.167 h (metabolic stability; human, liver microsomes).
For `Cn1nc2c(=O)n(C3CC3)ccc2c1[C@](O)(c1ccc(C(F)(F)F)nc1)C1CC1`, the kinetic solubility was 20 to 40 µM (≈ 8.09 to 16.2 µg/mL) (nephelometry; aqueous buffer; 30 min, pH 6.5).
For `CN(C)C(=O)c1cc2cnc(Nc3ccc(-c4ccc5c(=O)cc(N6CCOCC6)oc5c4)cc3)nc2n1C1CCCC1`, the bioavailability was 10.5% (BALB/c mouse, plasma; oral, 20 mg/kg).
`Cc1noc(C)c1Cn1cc(N2C(=O)CN(Cc3cccc(O)c3)C2=O)cn1` gave a concentration of 7.88 ng/mL (male Sprague-Dawley rat, plasma; oral, 30 mg/kg, 12 h).
The kinetic solubility of `Cn1nc2c(=O)n(C3CC3)ncc2c1[C@](O)(c1cnc(C(F)(F)F)c(Cl)c1)C1CC1` is reported as 20 to 40 µM (≈ 8.8 to 17.6 µg/mL) (nephelometry; aqueous buffer; 30 min, pH 6.5).
The half-life of `COc1cc(C)c(Sc2cnc(NC(=O)c3ccc(N4CCN(CCCCCCCNC(=O)COc5cccc6c5C(=O)N(C5CCC(=O)NC5=O)C6=O)CC4)cc3)s2)cc1C(=O)N1CCN(C(C)=O)CC1` (stereo not shown) is reported as 1.9 h (male C57BL/6 mouse, serum; intraperitoneal, 10 mg/kg, single dose).
The half-life of `COc1cccc(Cn2nc(-c3ccc(CO)o3)c3ccccc32)c1` is reported as 0.0333 h (metabolic stability; rat, liver microsomes; 1 µM, pH 7.4).
`C/C(=N\c1ccc(O)cc1)c1cc2ccccc2n1C` has a Vd of roughly 25 L/kg (male Sprague-Dawley rat, plasma; intravenous, 5 mg/kg, single dose).
The thermodynamic solubility of `C[C@H]1COC2=C1C(=O)C(=O)c1c2ccc2c1CCCC2(C)C` is reported as 16.4 µg/mL (≈ 55.3 µM) (PBS; 24 h, pH 5.5, 25 °C).
The compound remaining of `Cc1ccc2c(c1)nc(CCc1cccc3cccnc13)n2-c1ccccc1` is reported as 1.89% (metabolic stability; rat, liver microsomes; 1.5 µM, 5 min).
`C=CCn1c(=O)c2cnc(Nc3ccc(N4CCN(C)CC4)cc3)nc2n1-c1ccc2c(n1)[C@@](O)(CC)CC2` gave a Vd of 4.4 L/kg (dog, plasma; intravenous, 3 mg/kg).
With `Cc1ncsc1-c1ccc([C@H](C)NC(=O)[C@@H]2C[C@@H](O)CN2C(=O)[C@@H](NC(=O)CCc2ccc(C#Cc3ccc(C(=O)NCCCn4cc(-c5ccc6c(c5)CCN6C(=O)Cc5cccc(OC(F)(F)F)c5)c5c(N)ncnc54)cc3)cn2)C(C)(C)C)cc1` the half-life was 1.08 h (metabolic stability; mouse, liver S9; 1 µM).
The solubility of `CCC(C)n1ncn(-c2ccc(N3CCN(c4ccc(OCC5COC(Cn6cncn6)(c6ccc(Cl)cc6Cl)O5)cc4)CC3)cc2)c1=O` (stereo not shown) is reported as 5 µg/mL (≈ 7.09 µM) (FaSSIF; pH 6.5).
The kinetic solubility of `CC[C@@](O)(c1ccc(C(F)(F)F)c(Cl)c1)c1c2cnn(C3CC3)c(=O)c2nn1C` is reported as 6.25 to 12.5 µM (≈ 2.67 to 5.34 µg/mL) (nephelometry; aqueous buffer; 30 min, pH 6.5).
`Cc1c(C(=O)O)ccc2c3n(nc12)[C@@H]1[C@H](C3)N(CC2CC2)[C@@]2(C(=O)Nc3cc(Cl)ccc32)[C@H]1c1cccc(Cl)c1F` gave an AUC(0-inf) of 13.4 µM·h (female minipig, plasma; oral, 2 mg/kg).
`Cn1nc2c(=O)n(C3CC3)ncc2c1[C@](O)(c1cnc(C(F)(F)F)c(Cl)c1)C(F)(F)F` has a kinetic solubility of 20 to 40 µM (≈ 9.36 to 18.7 µg/mL) (nephelometry; aqueous buffer; 30 min, pH 6.5).
`N#C[C@@]1(c2ccc3c(N)ncnn23)O[C@H](CO)[C@@H](O)[C@H]1O` gave a fraction unbound of 0.932 (dog, plasma; 10 µM).
The kinetic solubility of `CC[C@@](O)(c1cc(F)c(F)c(F)c1)c1c2ccn(C3CC3)c(=O)c2nn1C` is reported as 50 to 100 µM (≈ 18.9 to 37.7 µg/mL) (nephelometry; aqueous buffer; 30 min, pH 6.5).
`COc1ccc(N/N=C/c2ccc(-c3ccc(/C=N/Nc4ccc(OC)cc4)cc3)cc2)cc1` gave a haemolysis of less than 30% (haemolysis; mouse; 62.5 µg/mL, 1 h).
The kinetic solubility of `Cn1nc2c(=O)n(C3CC3)cnc2c1[C@](O)(c1ccc(C(F)(F)F)c(C#N)c1)C(F)(F)F` is reported as 40 to 80 µM (≈ 18.3 to 36.6 µg/mL) (nephelometry; aqueous buffer; 30 min, pH 6.5).
`COc1cccc(-c2n[nH]c(SCc3ccccn3)n2)c1OC` has a concentration of 36600 ng/mL (male Sprague-Dawley rat, plasma; oral, 30 mg/kg, 1 h, single dose).
